Measurements collected from several papers.
Each line is one published result; not all experiments were run side by side. “And” joins repeats or separate records; there may be more than shown. ± marks the error that the study gave.
Cell line: HEK-293T

`O=C(Nc1ccccc1OS(=O)(=O)c1ccc(F)cc1)c1ccc2ncccc2c1`: viability “not toxic” (MTT; up to 100 µM).
`COc1cc(/C=C/C=C2\SC(=S)NC2=O)cc(OC)c1O` has a viability of 0.969 and 1.02 (CellTiter-Glo; 20 µM, 24 h, unit not given; relative to: untreated).
For `CC[S+]([O-])c1nc(-c2ccccc2)cc(C(F)(F)F)n1` (stereo not drawn), toxicity read “not toxic” (ATPlite, CytoTox; up to 60 µM).
`CS(=O)(=O)C1(CNCc2cccc3cccnc23)CC1` — result for cytotoxicity: “not toxic” (bright-field microscopy; concentration not given, overnight).
The CC50 of `CCCC(C(=O)O)c1c(C)nc2ccc(Cl)cc2c1-c1ccccc1` (stereo not drawn) is reported as 34.3 ± 4.19 µM.
`CN(C/C=C/C(=O)N1CCC[C@@H](n2nc(-c3ccc(Oc4ccccc4)cc3)c3c(N)ncnc32)C1)CCCNC(=O)CNc1cccc2c1C(=O)N(C1CCC(=O)NC1=O)C2=O` (stereo partly drawn) — result for “intracellular accumulation coefficient”: 0.023.
`Cc1ccc(S(=O)(=O)Oc2ccc(NC(=O)c3cnccn3)cc2)cc1` — result for viability: “not toxic” (MTT; up to 100 µM).
For `CN(CCCNC(=O)CNc1cccc2c1C(=O)N(C1CCC(=O)NC1=O)C2=O)CCCC(=O)N1CCC[C@@H](n2nc(-c3ccc(Oc4ccccc4)cc3)c3c(N)ncnc32)C1` (stereo partly drawn), “intracellular accumulation coefficient” read 0.0037.
`COc1ccc(C[C@H](NC(=O)[C@H](C)NC(=O)CN2CCOCC2)C(=O)N[C@@H](Cc2ccccc2)C(=O)C2(C)CO2)cc1` (stereo in doubt) gave a viability of over 95% (CCK-8; 100 µM).

A few entries again:
`CN(C/C=C/C(=O)N1CCC[C@@H](n2nc(-c3ccc(Oc4ccccc4)cc3)c3c(N)ncnc32)C1)CCCNC(=O)CNc1cccc2c1C(=O)N(C1CCC(=O)NC1=O)C2=O` (stereo partly drawn) — result for “intracellular accumulation coefficient”: 0.023.
